Experimental data collected from several papers.
Parts stem from different laboratories: compare values within a part only.

Block 1 — technique: universal PBM; form: double-stranded DNA, one strand shown; matrix: in vitro; tested at: 600 nM; reading: higher = stronger binding
Target: Sal-like protein 4, full length isoform A (SALL4, Homo sapiens, UniProt Q9UJQ4, residues 1-1053)
Sequence of UniProt Q9UJQ4 (whole entry, looked up): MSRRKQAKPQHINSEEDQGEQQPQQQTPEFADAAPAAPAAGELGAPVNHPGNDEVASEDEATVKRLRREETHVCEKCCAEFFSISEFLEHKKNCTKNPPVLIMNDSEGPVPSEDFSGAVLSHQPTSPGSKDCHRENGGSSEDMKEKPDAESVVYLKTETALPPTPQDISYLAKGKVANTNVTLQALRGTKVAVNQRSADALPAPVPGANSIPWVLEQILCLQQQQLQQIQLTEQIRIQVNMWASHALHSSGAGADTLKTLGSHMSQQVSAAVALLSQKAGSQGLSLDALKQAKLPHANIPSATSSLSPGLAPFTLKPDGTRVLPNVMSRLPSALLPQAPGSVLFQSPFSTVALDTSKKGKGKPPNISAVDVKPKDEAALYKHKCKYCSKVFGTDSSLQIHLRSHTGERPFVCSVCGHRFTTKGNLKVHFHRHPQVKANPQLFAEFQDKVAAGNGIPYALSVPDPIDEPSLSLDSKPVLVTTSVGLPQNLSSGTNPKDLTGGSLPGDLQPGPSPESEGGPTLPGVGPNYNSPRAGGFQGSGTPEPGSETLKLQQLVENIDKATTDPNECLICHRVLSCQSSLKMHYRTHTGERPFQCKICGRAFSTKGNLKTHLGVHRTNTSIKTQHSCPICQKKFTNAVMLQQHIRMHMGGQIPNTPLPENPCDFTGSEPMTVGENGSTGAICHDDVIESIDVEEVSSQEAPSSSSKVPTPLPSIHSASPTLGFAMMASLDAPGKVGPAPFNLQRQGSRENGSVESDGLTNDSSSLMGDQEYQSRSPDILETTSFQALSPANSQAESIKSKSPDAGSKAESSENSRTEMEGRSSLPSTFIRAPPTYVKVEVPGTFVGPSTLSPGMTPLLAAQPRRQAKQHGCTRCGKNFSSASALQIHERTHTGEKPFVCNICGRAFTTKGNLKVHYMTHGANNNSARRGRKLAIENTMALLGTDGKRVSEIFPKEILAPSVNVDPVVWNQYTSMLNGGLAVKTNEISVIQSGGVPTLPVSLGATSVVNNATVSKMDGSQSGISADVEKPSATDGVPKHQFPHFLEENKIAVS
Setting: 8-mer, flanks averaged, mean of replicates
Strand	E-score
AAGACCAT	0.0463
CTCGACGA	-0.241
AAGTGACG	-0.0342
GCGACCTA	-0.151
CGTCTAGA	-0.0644
CGCACGTC	-0.188
AACCTTCG	0.0286
ATCGTTAA	0.205
AACAGGTG	-0.0816
AGAGGTCC	-0.216
GCCAACAA	-0.0184
CATCCTCC	-0.174
GTCGATAA	0.111
CGAGCTTC	-0.069
CTGGTCCC	-0.329
AGTAGGCC	-0.264
ATACGGTG	0.0704
AGCTGGGG	-0.3
CTTCACAA	0.0996
TACGAGAA	0.0291
AGTCATCG	0.0812
ACATGATG	0.147

Block 2 — technique: aptamer microarray, sandwich; form: DNA with 2'F-ANA; matrix: in vitro; tested at: 200 nM; together with: Cy3 exosite-II aptamer, 400 nM; reading: higher = stronger binding; strand: GGTTGGTGTGGTTGG
Target: Prothrombin, mature alpha-thrombin (F2, Homo sapiens, UniProt P00734)
Setting: whole 15-mer aptamer, many near background
Modification	mean fluorescence intensity [a.u.]
2'F-ANA at 1 3 5	60.4
2'F-ANA at 1 7 12 13 14	120
2'F-ANA at 5 8 9 11	74.6
2'F-ANA at 1 3 4 9 12	425
2'F-ANA at 2 3 6 9 14 15	336
2'F-ANA at 2 3 6 7 9 11 12 14 15	317
2'F-ANA at 2 3 7 8 12	1360
2'F-ANA at 1 2 3 7 9 10 11 12	84.7
2'F-ANA at 1 2 4 6 7 13	106
2'F-ANA at 1 2 3 4 10 11 12 13	62.7
2'F-ANA at 2 3 4 5 6 10 13 14	90.7
2'F-ANA at 1 5 7 8 11 12 13	77.4
2'F-ANA at 1 2 3 7 9 10 12 15	109
2'F-ANA at 1 2 4 8 9 10	52.5
2'F-ANA at 1 2 3 4 5 6 7 9 10 13	47.7
2'F-ANA at 1 2 3 8 11 13 14 15	69.2
2'F-ANA at 1 2 5 6 7 8 10 13	46.1
2'F-ANA at 1 2 3 7 9 10 14	57.2

Block 3 — technique: RNA Bind-n-Seq; form: RNA; matrix: in vitro; tested at: 365 nM; relative to: no-protein control; reading: higher = stronger binding
Target: RNA binding protein fox-1 homolog 2, RRM domain, GST-SBP tag (RBFOX2, Homo sapiens, UniProt O43251-10, residues 100-194)
Setting: natural RNA segment, single round, ends assumed
Shared flanks, not repeated: GGGAGUUCUACAGUCCGACGAUC … UGGAAUUCUCGGGUGCCAA
Construct (chain): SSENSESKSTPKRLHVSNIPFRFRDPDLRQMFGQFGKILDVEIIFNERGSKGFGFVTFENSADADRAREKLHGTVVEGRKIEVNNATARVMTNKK
Strand	RBNS enrichment (R)
UGUGGGAGGGGAAAGGAGAAACAAAGCUAGUCAGAUGUGAAUUGUAUCUGUUGUAAUAAACAUGUUUAAACAAACACAUUUUGUUACUUUUUUUCCCUUCGGCCGGUACA	2.43
UGAAGUUGCUUAUCAGCUUAAGGAGAUUUUGGGCUGAGACGAUGGGGUUUUCUAGAUAUACAAUCAUGUCGUCUGCAAACGGACAAUUUGACUUCCUCUUUUCCUAAUUG	0.293
GCUUGCAUGGGUCUGCCCGUGUCGACAGACCCUAGGCUCCCAGUCUCUCUCCUUCAUGUGCUAUUCUCCUUCCCCAGGCAGAUUGGCAGGGGAAGUGGGAGCAGAUGGCC	1.64
CAUGGCGUUUGGUUCUCCUUCCUUCUCUCUCCUGCUCACUUCUCUGCCGCGCAACACAUCUCUCUGAGGCUGGCAAGCCUCGCCCCUCGCAGUGACGUCCUCCCACGCCU	0.802
UGGCUCAAAUCCUGUAAAGGGCUUGACCAGUCUCUACAUAGUCACCGUCCGCUUUUCCUGAGUUCUCCCUCCCAAUUGGCUCCAGCUUCCUGGGGGCGUGGCCAAGCCCU	0.311
CGGUAAGGCUUAUUCAUGGUUCAUUGCCAGGAGCAGAUAUGCUUUUGAGAUCACUUUUAUUUUUGAAAUGGCCUUUGUUCAUUGUAUUGUGAUCCAAUAACACUUUGUAU	0.654
GGCCUUGCUGCCAUUCCAGUCACGCACUCCUUGUCCCUGUCUCGCAUGGAGAUCAAAGAAAUAGCAAGCAGGACCCGCAGGGAACUACUGGGCCUCUCGGAUGAAGGUGG	0.554
AAUGAAAUAGUAGUUAAGAGGUGUUUUCCCACUGUGUUUAAAGAGAACACUAGUAAUUCUGGUUUUUCUUUCUAACUGCUUUACUGUUUCAAGGGUAUUCUUUUAAAACU	0.279

Block 4 — technique: protein binding microarray; form: double-stranded DNA, one strand shown; matrix: in vitro; tested at: not given; relative to: not given; reading: higher = stronger binding
Target: Histone acetyltransferase KAT6A, winged helix 1, GST fusion (KAT6A, Homo sapiens, UniProt Q92794, residues 1-85)
Setting: 8-mer, flanks averaged, mean of 2 arrays, mostly near background
Target sequence (chain): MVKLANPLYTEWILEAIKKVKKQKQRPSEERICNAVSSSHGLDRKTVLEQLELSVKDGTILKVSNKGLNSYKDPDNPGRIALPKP
Strand	E-score
GTGCCGTA	0.377
AGCTGGAG	-0.246
AGGGCAAG	-0.208
ATGTGTCC	0.0388
GGTACAAC	-0.129
ACAAGAAC	-0.0948
CAGCAGCG	0.15
ATCCACGA	-0.12
CGAAGTGC	0.0705
ACAGGGGT	-0.159
AGTCCTAT	-0.124
CGGGAATA	0.277
GTGAGCTA	-0.219
AGGTCGCA	0.125
GAATCAGA	-0.209
AACTGAAG	-0.142
AAAGAAAC	-0.0882
CCGCGCTA	0.371
CTACATAC	-0.0907
AATAGCTG	-0.126
CTAGAGTA	-0.0532
TTTGAAAA	-0.117
AGACGGTA	0.133
CTACAGTA	-0.19
CAATGGTA	-0.023

Block 5 — technique: protein-binding microarray; form: double-stranded DNA, one strand shown; matrix: in vitro; tested at: not given; reading: higher = stronger binding
Target: Max-binding protein MNT, bHLH-zipper, MAX partner unstated (MNT, Homo sapiens, UniProt Q99583, residues 220-300)
Setting: k-mer, scored over probes, only values ≥0.25
Residues (chain): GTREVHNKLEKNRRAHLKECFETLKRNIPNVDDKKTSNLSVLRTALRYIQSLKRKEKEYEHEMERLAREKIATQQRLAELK
Strand	E-score
CATGCGCA	0.411
AACACGCC	0.344
CACTCACG	0.27
ACCACGCG	0.472
CATGGAAC	0.299
AAGCATGT	0.409
CGTGAGCA	0.292
CCCACACG	0.356
GACCCACC	0.265
AACACACG	0.311
CATGTTTA	0.34
GTCCCACA	0.264
CGGTGCAC	0.259
CCCACCAC	0.281
CACCCCAG	0.304
CCCGCCGC	0.312
ACATGGGC	0.263

A few entries again (block 5):
Strand	E-score
ACCACGCG	0.472
CCCACACG	0.356
CATGGAAC	0.299
CGGTGCAC	0.259
CACCCCAG	0.304
CGTGAGCA	0.292
ACATGGGC	0.263
CATGCGCA	0.411
CCCGCCGC	0.312
GACCCACC	0.265
AACACACG	0.311
CATGTTTA	0.34
CACTCACG	0.27
